Measurements gathered from unrelated publications.
Compare with care: the assays were run in different laboratories. Numbers after ± are the reported error.

| Compound | tested on | assay | test system | conditions | measurement | value |
| --- | --- | --- | --- | --- | --- | --- |
| Cc1cc(/C=C/C#N)cc(C)c1Nc1nc(Nc2ccc(C#N)cc2)ncc1N | HIV-1 | viral replication, single-round infection | RT mutant L234I | – | EC50 | 0.0002 ± 0.0001 µM |
| CCOC(=O)/C=C/[C@H](C[C@@H]1CCNC1=O)NC(=O)[C@H](CC(C)C)NC(=O)[C@@H](NC(=O)OCc1ccccc1)[C@@H](C)OC(C)(C)C | Severe acute respiratory syndrome coronavirus 2 | viral replication, inhibitor | Vero C1008 | 72 h | EC50 | 3.02 µM |
| O=C(O[C@@H]1Cc2c(O)cc(O)cc2O[C@H]1c1cc(O)c(O)c(O)c1)c1cc(O)c(O)c(O)c1 | Severe acute respiratory syndrome coronavirus 2 | antiviral activity | Huh-7 | 96 h | EC50 | > 100 µM |
| CC(C)C[C@H](NC(=O)[C@@H](NC(=O)OCc1ccccc1)C(C)C)C(=O)N[C@H](C=O)C[C@@H]1CCNC1=O | Severe acute respiratory syndrome coronavirus 2 | viral replication, plaque reduction | Vero E6, USA-WA1/2020 | 3 days | EC50 | > 5 µM |
| CN=c1nc(-c2ccccc2)n(-c2ccccc2)s1 | Severe acute respiratory syndrome coronavirus 2 | antiviral activity | Huh-7 | 96 h | EC50 | > 100 µM |
| CN(C)C/C=C/C(=O)Nc1ccc(C(=O)Nc2cccc(Nc3cc(-c4c[nH]c5ccccc45)ncn3)c2)cc1 | Severe acute respiratory syndrome coronavirus 2 | viral replication, inhibitor, luciferase | Calu-3 | – | EC50 | 0.2 µM |
| CC[C@H](C)[C@H](NC(=O)[C@H](CCCN)NC(=O)[C@H](CC(=O)O)NC(=O)[C@H](CC(C)C)NC(=O)C(C)(CC(C)C)NC(=O)[C@@H](NC(=O)[C@H](CO)NC(=O)[C@H](Cc1ccc(O)cc1)NC(=O)[C@H](CC(=O)O)NC(=O)[C@H](CO)NC(=O)[C@@H](NC(=O)[C@H](Cc1ccccc1)NC(=O)[C@@H](NC(=O)CNC(=O)[C@H](CCC(=O)O)NC(=O)C(C)(C)NC(=O)[C@@H](N)Cc1ccc(O)cc1)[C@@H](C)O)[C@@H](C)CC)[C@@H](C)CC)C(=O)N[C@@H](Cc1c[nH]cn1)C(=O)N[C@@H](CCC(N)=O)C(=O)NC(C)(C)C(=O)N[C@@H](CC(=O)O)C(=O)N[C@@H](Cc1ccccc1)C(=O)N[C@H](C(=O)N[C@@H](CCC(=O)O)C(=O)N[C@@H](Cc1ccc(O)cc1)C(=O)N[C@@H](CCCCNC(=O)COCCOCCNC(=O)COCCOCCNC(=O)CC[C@H](NC(=O)CCCCCCCCCCCCCCCCCCC(=O)O)C(=O)O)C(=O)N[C@@H](CC(C)C)C(=O)N[C@@H](CCC(=O)O)C(=O)NCC(=O)NCC(=O)N1CCC[C@H]1C(=O)N[C@@H](CO)C(=O)N[C@@H](CO)C(=O)NCC(=O)N[C@@H](C)C(=O)N1CCC[C@H]1C(=O)N1CCC[C@H]1C(=O)N1CCC[C@H]1C(=O)N[C@@H](CO)C(N)=O)C(C)C (stereo partly drawn) | – | – | human | subcutaneous, 0.3 to 25 mg single dose, range | tmax | 8 to 96 h |
| CCCCCCCCCCCCCCCC(=O)N[C@@H](CCC(=O)NCCOCCOCCC(=O)NCCOCCOCCC(=O)NCCCC[C@H](NC(=O)[C@H](CC(=O)O)NC(=O)[C@H](CC(C)C)NC(=O)[C@H](Cc1ccc(O)cc1)NC(=O)[C@H](CCCCN)NC(=O)[C@H](CO)NC(=O)[C@H](Cc1ccc(O)cc1)NC(=O)[C@H](CC(=O)O)NC(=O)[C@H](CO)NC(=O)[C@@H](NC(=O)[C@H](Cc1ccccc1)NC(=O)[C@@H](NC(=O)CNC(=O)[C@H](CCC(N)=O)NC(=O)[C@@H](CO)NC(=O)[C@@H](N)Cc1c[nH]cn1)[C@@H](C)O)[C@@H](C)O)C(=O)N[C@@H](CCCNC(=N)N)C(=O)N[C@@H](CCCNC(=N)N)C(=O)N[C@@H](C)C(=O)N[C@@H](CCC(N)=O)C(=O)N[C@@H](CC(=O)O)C(=O)N[C@@H](Cc1ccccc1)C(=O)N[C@H](C(=O)N[C@@H](CCC(N)=O)C(=O)N[C@@H](Cc1c[nH]c2ccccc12)C(=O)N[C@@H](CC(C)C)C(=O)N[C@@H](CC(C)C)C(=O)N[C@@H](CC(N)=O)C(=O)N[C@H](C(=O)NCC(=O)NCC(=O)N1CCC[C@H]1C(=O)N[C@@H](CO)C(=O)N[C@@H](CO)C(=O)NCC(=O)N[C@@H](C)C(=O)N1CCC[C@H]1C(=O)N1CCC[C@H]1C(=O)N1CCC[C@H]1C(=O)N[C@@H](CO)C(N)=O)[C@@H](C)O)C(C)C)C(=O)O | – | – | female Sprague-Dawley rats | subcutaneous, 500 µg/kg once daily, 14 days | serum total bilirubin | 2.2 ± 0.4 µmol/L |
| O=C(CCN(Cc1ccco1)C(=O)c1csc(Nc2ccccc2)n1)NCc1cccc(C(F)(F)F)c1 | Severe acute respiratory syndrome coronavirus 2 | viral replication, inhibitor | A549-ACE2 | – | EC50 | 12.4 µM |
| CC[C@H](C)[C@H](NC(=O)[C@H](CCCCN)NC(=O)[C@H](CCCCN)NC(=O)[C@H](CC(C)C)NC(=O)[C@H](Cc1c[nH]c2ccccc12)NC(=O)CN)C(=O)NCC(=O)N[C@@H](CCCCN)C(=O)N[C@@H](CCCCN)C(=O)N[C@H](C(=O)N[C@@H](CCC(=O)O)C(=O)N[C@@H](CCCNC(=N)N)C(=O)N[C@H](C(=O)NCC(=O)N[C@@H](CCC(N)=O)C(=O)N[C@@H](Cc1c[nH]cn1)C(=O)N[C@H](C(=O)N[C@@H](CCCNC(=N)N)C(=O)N[C@@H](CC(=O)O)C(=O)N[C@@H](C)C(=O)N[C@H](C(=O)N[C@H](C(=O)N[C@@H](CCC(N)=O)C(=O)N[C@H](C(=O)N[C@H](C(=O)NCC(=O)N[C@H](C(=O)N[C@@H](C)C(=O)N[C@@H](CCC(N)=O)C(=O)N[C@@H](CCC(N)=O)C(=O)N[C@@H](C)C(=O)N[C@@H](C)C(=O)N[C@@H](CC(N)=O)C(=O)N[C@H](C(=O)N[C@@H](C)C(=O)N[C@@H](C)C(=O)N[C@H](C(=O)N[C@@H](CC(C)C)C(=O)N[C@@H](CCCCN)C(N)=O)[C@@H](C)O)C(C)C)C(C)C)[C@@H](C)CC)[C@@H](C)O)[C@@H](C)CC)[C@@H](C)O)[C@@H](C)O)C(C)C)[C@@H](C)CC | Listeria monocytogenes | – | DSM 20600, CAMHB | – | MIC | > 1020 µg/mL |
| Brc1c(Br)c(Br)c2[nH]nnc2c1Br | Severe acute respiratory syndrome coronavirus 2 | antiviral activity | Huh-7 | 96 h | EC50 | > 100 µM |
| C[C@@H](OC(C)(C)C)[C@H](NC(=O)OCc1ccccc1)C(=O)N[C@@H](Cc1ccccc1)C(=O)N[C@H](C=O)C[C@@H]1CCNC1=O | Severe acute respiratory syndrome coronavirus 2 | viral replication, plaque reduction | Vero E6, USA-WA1/2020 | 3 days | EC50 | 0.17 ± 0.02 µM |
| Cc1cc(/C=C/C#N)cc(C)c1-n1cnc2cnc(Nc3ccc(C#N)cc3)nc21 | HIV-1 | viral replication, single-round infection | RT mutant Y188L | – | EC50 | 0.0245 ± 0.004 µM |
| CCCCCCCCCCCCCCCC(=O)N[C@@H](CCC(=O)NCCCC[C@H](NC(=O)[C@H](CC(=O)O)NC(=O)[C@H](CO)NC(=O)[C@@H](NC(=O)[C@H](Cc1ccccc1)NC(=O)[C@@H](NC(=O)CNC(=O)[C@H](CCC(N)=O)NC(=O)[C@H](C)NC(=O)[C@@H](Cc1ccc(O)cc1)NC(C)=O)[C@@H](C)O)[C@@H](C)O)C(=O)N[C@@H](CO)C(=O)N[C@@H](CCCCN)C(=O)N[C@@H](Cc1ccc(O)cc1)C(=O)N[C@@H](CC(C)C)C(=O)N[C@@H](CC(=O)O)C(=O)N[C@@H](CCC(=O)O)C(=O)N[C@@H](CCCNC(=N)N)C(=O)N[C@@H](C)C(=O)N[C@@H](C)C(=O)N[C@@H](CCC(N)=O)C(=O)N[C@@H](CC(=O)O)C(=O)N[C@@H](Cc1ccccc1)C(=O)N[C@H](C(=O)N[C@@H](CCC(N)=O)C(=O)N[C@@H](Cc1c[nH]c2ccccc12)C(=O)N[C@@H](CC(C)C)C(=O)N[C@@H](CC(C)C)C(=O)N[C@@H](CCC(=O)O)C(=O)NCC(=O)NCC(=O)N1CCC[C@H]1C(=O)N[C@@H](CO)C(=O)N[C@@H](CO)C(=O)NCC(=O)N[C@@H](C)C(=O)N1CCC[C@H]1C(=O)N1CCC[C@H]1C(=O)N1CCC[C@H]1C(=O)N[C@@H](CO)C(N)=O)C(C)C)C(=O)O | – | – | male Wistar rat, plasma | intravenous, 0.02 mg/kg | clearance | 0.737 mL/min/kg |
| O=C[C@H](C[C@@H]1CCNC1=O)NC(=O)[C@H](Cc1ccccc1)NC(=O)/C=C/c1ccc(Cl)cc1F | Severe acute respiratory syndrome coronavirus 2 | viral replication, plaque reduction | Vero E6, USA-WA1/2020 | 3 days | EC50 | > 5 µM |
| Cc1ccc(NCCN(C)CCNc2ccnc3cc(Cl)ccc23)c2c(=O)c3ccccc3sc12 | Severe acute respiratory syndrome coronavirus 2 | viral entry, inhibitor | HEK-293T | 48 h, pseudovirus | EC50 | 0.87 µM |
| O=C[C@H](C[C@@H]1CCNC1=O)NC(=O)[C@H](Cc1ccccc1)NC(=O)OCc1ccccc1 | Severe acute respiratory syndrome coronavirus 2 | viral replication, plaque reduction | Vero E6, USA-WA1/2020 | 3 days | EC50 | > 5 µM |
| CC(C)CC(NC(=O)OCc1ccccc1)C(=O)NC(CC1CCNC1=O)C(O)S(=O)(=O)O (stereo not drawn) | Severe acute respiratory syndrome coronavirus 2 | viral replication, inhibitor | A549-ACE2 | – | EC50 | 14.7 µM |

A few entries again:
| Compound | tested on | assay | test system | conditions | measurement | value |
| --- | --- | --- | --- | --- | --- | --- |
| Cc1cc(/C=C/C#N)cc(C)c1-n1cnc2cnc(Nc3ccc(C#N)cc3)nc21 | HIV-1 | viral replication, single-round infection | RT mutant Y188L | – | EC50 | 0.0245 ± 0.004 µM |
